Experimental data collected from several papers.
A part holds a random share of what one study measured.
Chain of UniProt Q13237 (whole entry, looked up): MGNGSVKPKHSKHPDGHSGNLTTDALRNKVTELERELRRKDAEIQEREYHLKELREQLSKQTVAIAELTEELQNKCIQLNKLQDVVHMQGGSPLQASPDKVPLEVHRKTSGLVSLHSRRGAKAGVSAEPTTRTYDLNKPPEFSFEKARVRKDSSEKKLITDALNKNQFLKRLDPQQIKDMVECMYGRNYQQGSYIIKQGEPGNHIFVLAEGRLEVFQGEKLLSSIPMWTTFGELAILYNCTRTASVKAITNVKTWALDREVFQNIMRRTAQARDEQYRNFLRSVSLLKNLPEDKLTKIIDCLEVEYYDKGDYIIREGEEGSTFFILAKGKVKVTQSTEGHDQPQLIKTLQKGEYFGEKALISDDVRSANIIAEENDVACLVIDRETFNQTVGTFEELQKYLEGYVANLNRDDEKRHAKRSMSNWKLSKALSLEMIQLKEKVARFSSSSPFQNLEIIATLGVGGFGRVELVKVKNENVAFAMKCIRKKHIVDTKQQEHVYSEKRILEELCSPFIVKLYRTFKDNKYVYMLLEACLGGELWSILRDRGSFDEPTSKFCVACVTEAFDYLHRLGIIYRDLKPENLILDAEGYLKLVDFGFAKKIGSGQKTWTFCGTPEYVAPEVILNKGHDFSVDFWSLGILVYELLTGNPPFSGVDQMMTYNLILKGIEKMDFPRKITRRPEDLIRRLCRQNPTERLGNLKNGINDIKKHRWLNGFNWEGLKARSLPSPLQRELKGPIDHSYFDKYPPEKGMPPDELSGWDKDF
Chain of UniProt Q12866 (whole entry, looked up): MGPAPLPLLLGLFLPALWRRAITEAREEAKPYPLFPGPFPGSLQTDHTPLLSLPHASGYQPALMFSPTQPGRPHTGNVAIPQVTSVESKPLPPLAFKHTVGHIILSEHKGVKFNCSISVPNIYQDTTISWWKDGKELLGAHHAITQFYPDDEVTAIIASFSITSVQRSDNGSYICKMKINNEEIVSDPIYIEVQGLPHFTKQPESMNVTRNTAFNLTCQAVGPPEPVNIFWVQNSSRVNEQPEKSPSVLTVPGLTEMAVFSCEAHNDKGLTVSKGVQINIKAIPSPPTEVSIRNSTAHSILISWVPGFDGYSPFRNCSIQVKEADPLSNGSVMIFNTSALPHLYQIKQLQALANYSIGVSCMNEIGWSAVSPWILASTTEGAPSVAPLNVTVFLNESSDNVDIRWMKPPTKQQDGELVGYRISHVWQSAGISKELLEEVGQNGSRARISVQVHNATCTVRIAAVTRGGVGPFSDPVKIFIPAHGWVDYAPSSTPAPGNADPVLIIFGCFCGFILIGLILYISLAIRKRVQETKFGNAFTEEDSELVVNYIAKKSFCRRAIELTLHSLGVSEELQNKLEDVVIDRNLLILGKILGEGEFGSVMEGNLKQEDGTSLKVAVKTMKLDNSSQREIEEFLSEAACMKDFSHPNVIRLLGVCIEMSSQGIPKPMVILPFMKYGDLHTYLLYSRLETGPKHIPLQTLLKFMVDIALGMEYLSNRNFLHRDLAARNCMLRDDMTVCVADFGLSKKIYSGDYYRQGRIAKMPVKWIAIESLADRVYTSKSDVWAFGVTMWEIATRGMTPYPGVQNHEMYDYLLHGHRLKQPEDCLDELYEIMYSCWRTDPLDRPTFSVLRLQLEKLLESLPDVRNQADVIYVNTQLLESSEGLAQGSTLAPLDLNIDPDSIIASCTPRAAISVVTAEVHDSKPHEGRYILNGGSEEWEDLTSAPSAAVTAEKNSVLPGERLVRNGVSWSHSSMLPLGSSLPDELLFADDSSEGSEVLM
Chain of UniProt Q9UQB9 (whole entry, looked up): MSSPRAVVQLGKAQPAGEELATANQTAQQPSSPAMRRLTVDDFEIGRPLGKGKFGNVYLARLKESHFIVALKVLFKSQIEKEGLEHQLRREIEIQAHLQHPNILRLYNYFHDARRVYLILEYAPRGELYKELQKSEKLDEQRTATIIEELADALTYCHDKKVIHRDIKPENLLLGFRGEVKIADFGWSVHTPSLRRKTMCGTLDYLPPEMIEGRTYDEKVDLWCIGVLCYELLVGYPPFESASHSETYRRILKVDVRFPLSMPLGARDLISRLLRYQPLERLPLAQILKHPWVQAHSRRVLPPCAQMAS
Chain of UniProt Q9BQI3 (whole entry, looked up): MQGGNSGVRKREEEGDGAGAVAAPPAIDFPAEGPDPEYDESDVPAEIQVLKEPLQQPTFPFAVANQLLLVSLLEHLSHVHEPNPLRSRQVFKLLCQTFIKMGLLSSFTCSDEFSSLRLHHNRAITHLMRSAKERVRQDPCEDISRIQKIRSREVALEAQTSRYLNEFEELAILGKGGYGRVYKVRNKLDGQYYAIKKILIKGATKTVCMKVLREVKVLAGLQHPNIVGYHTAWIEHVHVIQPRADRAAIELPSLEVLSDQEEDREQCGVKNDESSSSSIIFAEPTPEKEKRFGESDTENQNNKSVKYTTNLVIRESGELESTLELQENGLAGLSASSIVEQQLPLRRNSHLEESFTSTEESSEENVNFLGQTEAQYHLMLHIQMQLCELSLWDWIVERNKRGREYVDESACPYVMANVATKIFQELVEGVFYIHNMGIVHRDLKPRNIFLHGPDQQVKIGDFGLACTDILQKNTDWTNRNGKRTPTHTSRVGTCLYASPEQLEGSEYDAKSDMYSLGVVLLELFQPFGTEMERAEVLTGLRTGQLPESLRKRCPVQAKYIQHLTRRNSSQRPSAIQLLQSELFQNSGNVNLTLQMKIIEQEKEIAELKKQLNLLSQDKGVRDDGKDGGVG
Chain of UniProt Q6XUX3 (whole entry, looked up): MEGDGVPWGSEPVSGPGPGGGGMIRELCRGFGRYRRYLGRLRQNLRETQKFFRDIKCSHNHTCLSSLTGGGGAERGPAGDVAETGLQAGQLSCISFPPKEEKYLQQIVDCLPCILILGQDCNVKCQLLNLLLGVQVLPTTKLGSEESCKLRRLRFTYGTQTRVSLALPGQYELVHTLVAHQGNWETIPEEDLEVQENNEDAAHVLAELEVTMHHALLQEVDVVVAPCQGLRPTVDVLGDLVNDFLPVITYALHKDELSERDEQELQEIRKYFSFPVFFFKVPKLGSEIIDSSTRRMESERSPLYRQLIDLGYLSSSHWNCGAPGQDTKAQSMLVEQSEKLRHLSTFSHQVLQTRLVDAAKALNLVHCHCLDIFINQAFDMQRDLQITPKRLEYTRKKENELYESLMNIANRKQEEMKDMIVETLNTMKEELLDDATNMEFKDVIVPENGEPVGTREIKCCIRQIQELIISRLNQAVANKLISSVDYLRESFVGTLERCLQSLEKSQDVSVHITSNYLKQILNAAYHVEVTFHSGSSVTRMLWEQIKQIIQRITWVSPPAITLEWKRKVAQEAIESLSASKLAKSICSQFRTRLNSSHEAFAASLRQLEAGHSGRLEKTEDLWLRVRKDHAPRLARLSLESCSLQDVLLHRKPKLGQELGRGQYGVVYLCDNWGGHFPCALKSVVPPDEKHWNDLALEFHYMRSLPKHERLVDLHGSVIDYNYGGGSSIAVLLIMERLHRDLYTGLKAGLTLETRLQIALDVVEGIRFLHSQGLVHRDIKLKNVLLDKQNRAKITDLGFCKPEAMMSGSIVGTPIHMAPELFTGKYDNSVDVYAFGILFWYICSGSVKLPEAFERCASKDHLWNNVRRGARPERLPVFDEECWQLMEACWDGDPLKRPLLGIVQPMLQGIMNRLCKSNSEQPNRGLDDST
Chain of UniProt Q9Y2H1 (whole entry, looked up): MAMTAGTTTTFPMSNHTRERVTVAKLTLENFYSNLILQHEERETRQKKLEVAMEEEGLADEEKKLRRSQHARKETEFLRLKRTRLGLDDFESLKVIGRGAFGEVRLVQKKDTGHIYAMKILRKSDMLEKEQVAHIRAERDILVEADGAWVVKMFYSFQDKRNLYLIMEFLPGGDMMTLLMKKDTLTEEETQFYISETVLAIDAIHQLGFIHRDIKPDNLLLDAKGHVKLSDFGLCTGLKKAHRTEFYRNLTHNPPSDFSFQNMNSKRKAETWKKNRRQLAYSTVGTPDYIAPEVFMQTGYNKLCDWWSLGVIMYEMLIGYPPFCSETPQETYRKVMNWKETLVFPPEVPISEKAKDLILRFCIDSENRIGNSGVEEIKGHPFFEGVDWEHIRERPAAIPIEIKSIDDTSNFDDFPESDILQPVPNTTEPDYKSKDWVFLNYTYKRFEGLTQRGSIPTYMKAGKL
Chain of UniProt Q9UK32 (whole entry, looked up): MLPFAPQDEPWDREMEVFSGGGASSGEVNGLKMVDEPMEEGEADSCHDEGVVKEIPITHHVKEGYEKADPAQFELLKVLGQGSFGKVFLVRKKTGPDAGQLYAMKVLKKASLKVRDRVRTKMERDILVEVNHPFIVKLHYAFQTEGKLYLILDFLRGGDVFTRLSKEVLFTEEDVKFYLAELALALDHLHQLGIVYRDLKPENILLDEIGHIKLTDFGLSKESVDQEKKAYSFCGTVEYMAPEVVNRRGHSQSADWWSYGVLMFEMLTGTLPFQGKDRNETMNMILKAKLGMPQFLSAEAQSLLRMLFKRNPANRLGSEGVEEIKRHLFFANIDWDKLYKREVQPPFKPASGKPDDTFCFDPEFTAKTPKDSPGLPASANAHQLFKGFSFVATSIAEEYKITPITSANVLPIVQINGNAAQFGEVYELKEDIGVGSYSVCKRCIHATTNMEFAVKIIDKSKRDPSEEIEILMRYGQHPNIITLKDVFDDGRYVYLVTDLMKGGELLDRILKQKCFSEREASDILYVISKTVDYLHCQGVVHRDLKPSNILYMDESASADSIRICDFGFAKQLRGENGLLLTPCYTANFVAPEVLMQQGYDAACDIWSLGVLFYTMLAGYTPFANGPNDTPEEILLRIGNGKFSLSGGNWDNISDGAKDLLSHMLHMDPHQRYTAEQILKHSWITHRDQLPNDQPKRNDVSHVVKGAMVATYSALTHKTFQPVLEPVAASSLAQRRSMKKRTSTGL

Sample 1
Cell line: mouse MPNST tumor cells
Method: high-content nuclear imaging
Refers to: cell number
Concentration: 10 µM
Time: 12 h
Setting: mean of 2 replicates
Reference: plate mean
Direction: higher = more cells
The nuclei count of `CC(NC(=O)C(OC(=O)C(C)NC(=O)OC(C)(C)C)C(C)C)C(=O)OC(C(=O)O)C(C)C` (centres unmarked) is reported as -0.785 z-score.
`N=C(N=C(N)N)N1CCOCC1` has a nuclei count of 0.439 z-score.
`O=C(Nc1cc(C(F)(F)F)ccc1N1CCCCC1)c1ccncc1` gave a nuclei count of -0.675 z-score.

Sample 2
Target: Protein C-ets-1 (ETS1, Homo sapiens, UniProt P14921, residues 1-441, full length assumed)
Method: protein-binding microarray
Molecule type: double-stranded DNA, one strand shown
Medium: in vitro
Concentration: not given
Setting: k-mer, scored over probes, only values ≥0.25
Direction: higher = stronger binding
Construct (chain): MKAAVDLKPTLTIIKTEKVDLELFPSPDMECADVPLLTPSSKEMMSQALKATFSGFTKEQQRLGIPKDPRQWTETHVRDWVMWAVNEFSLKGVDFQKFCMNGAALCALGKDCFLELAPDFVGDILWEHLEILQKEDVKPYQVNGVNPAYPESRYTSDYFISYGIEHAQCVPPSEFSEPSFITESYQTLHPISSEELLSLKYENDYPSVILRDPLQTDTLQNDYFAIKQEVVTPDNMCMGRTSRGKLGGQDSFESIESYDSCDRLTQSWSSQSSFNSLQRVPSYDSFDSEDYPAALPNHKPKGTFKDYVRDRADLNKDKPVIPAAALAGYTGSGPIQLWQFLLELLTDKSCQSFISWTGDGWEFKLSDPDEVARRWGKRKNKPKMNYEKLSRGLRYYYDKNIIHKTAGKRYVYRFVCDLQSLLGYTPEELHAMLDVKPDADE
For `CCGGCATC`, the E-score was 0.308.
For `CACGGAAA`, the E-score was 0.367.
For `AACAGGAT`, the E-score was 0.444.
`CCGCCCCC` gave an E-score of 0.303.
`CATTTCCC` gave an E-score of 0.407.
The E-score of `ACATCCCG` is reported as 0.421.
The E-score of `TCCGGCGA` is reported as 0.417.
For `CGGGAAGC`, the E-score was 0.402.

Sample 3
Species: human
Medium: microsomes or S9
Concentration: 2 µM
Time: 0.5 h
For `Cc1cccc(S(=O)(=O)Nc2nc3ncc(Br)nc3s2)c1`, the remaining compound was 44.6%.
`CC(=O)c1c(Nc2ccc(F)cc2)nn(-c2ccccc2)c1C` gave a remaining compound of 6.34%.
With `Cc1nc(C(C)(C)C)nc(N2CCC(n3cncn3)CC2)c1C` the remaining compound was 58.9%.

Sample 4
Compound: CCS(=O)(=O)c1cc2cc(C[C@](O)(CC(C)(C)c3ccc(F)cc3C(N)=O)C(F)(F)F)[nH]c2cn1
Read-out: cell-free assay
Method: competition with immobilised ligand
Concentration: 1 µM
The remaining binding was 100% (HASPIN (Homo sapiens, UniProt Q8TF76)).
It gave 100% for remaining binding (HIPK4 (Homo sapiens, UniProt Q8NE63)).
STK10 (Homo sapiens, UniProt O94804) — remaining binding: 100%.
It gave 85% for remaining binding (PRKG2 (Homo sapiens, UniProt Q13237)).
MERTK (Homo sapiens, UniProt Q12866) — remaining binding: 100%.
For FLT3 (Homo sapiens, UniProt P36888, D835V/ITD): remaining binding read 86%.
LATS2 (Homo sapiens, UniProt Q9NRM7) — remaining binding: 40%.
It gave 86% for remaining binding (DSTYK (Homo sapiens, UniProt Q6XUX3)).
The remaining binding was 100% (Ribosomal protein S6 kinase alpha-6, C-terminal kinase domain (RPS6KA6, Homo sapiens, UniProt Q9UK32)).
For MAP3K19 (Homo sapiens, UniProt Q56UN5): remaining binding read 93%.
MINK1 (Homo sapiens, UniProt Q8N4C8) — remaining binding: 89%.
It gave 45% for remaining binding (STK38L (Homo sapiens, UniProt Q9Y2H1)).
The remaining binding was 100% (Tyrosine-protein kinase ABL1, non-phosphorylated (ABL1, Homo sapiens, UniProt P00519, H396P)).
For EIF2AK1 (Homo sapiens, UniProt Q9BQI3): remaining binding read 100%.
The remaining binding was 100% (MAP3K12 (Homo sapiens, UniProt Q12852)).
The remaining binding was 91% (Aurora kinase C (AURKC, Homo sapiens, UniProt Q9UQB9)).

Sample 5
Organism: Plasmodium berghei
Action: inhibitor
Cell line: Huh-7
Strain: liver stage
Concentration: 10 µM
Time: 24 h
Reference: untreated control
`COC(=O)C1=C(C)NC(C)=C(C(=O)OCCN(C)Cc2ccccc2)C1c1cccc([N+](=O)[O-])c1` (centres unmarked) gave an infection rate of 112%.
With `C[N+]1(C)[C@@H]2CC[C@H]1C[C@@H](OC(=O)C(O)c1ccccc1)C2` (some centres unmarked) the infection rate was 83.4%.
With `c1ccc([C@H]2CN3CCSC3=N2)cc1` the infection rate was 90%.

Mixed results
Target: Pre-rRNA-processing protein FHL1, DNA-binding domain (FHL1, Saccharomyces cerevisiae, UniProt P39521, residues 401-638)
Method: SELEX-seq
Molecule type: double-stranded DNA, one strand shown
Medium: in vitro
Concentration: not given
Setting: 6-bp core, flanks averaged
Reference: best-binding core
Direction: lower = stronger binding
Sequence (chain, as in one of the studies): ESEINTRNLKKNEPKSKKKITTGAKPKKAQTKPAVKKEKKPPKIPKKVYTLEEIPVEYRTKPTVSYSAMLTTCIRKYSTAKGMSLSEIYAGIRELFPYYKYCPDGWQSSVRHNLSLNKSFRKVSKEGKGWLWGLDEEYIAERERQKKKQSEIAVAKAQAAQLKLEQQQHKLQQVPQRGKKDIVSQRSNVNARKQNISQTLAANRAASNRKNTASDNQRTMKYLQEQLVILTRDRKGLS
For `CGCGCA`, “relative binding free energy” read 0.271 ddG/RT.
Under “relative binding free energy”, `AACGCA` is recorded as 0.209 ddG/RT.

Repeated from above (sample 4):
LATS2 (Homo sapiens, UniProt Q9NRM7) — remaining binding: 40%.
It gave 86% for remaining binding (DSTYK (Homo sapiens, UniProt Q6XUX3)).
